Assay results from different studies.
A part holds a random share of what one study measured.

Sample 1
Target: Phosphate system positive regulatory protein PHO4, full length, GST-tagged (PHO4, Saccharomyces cerevisiae, UniProt P07270, residues 1-312)
Method: competition protein-binding microarray
Form: double-stranded DNA, one strand shown
Sample: in vitro
Tested at: 2 µM
Setting: whole 60-bp probe, lowest competitor level
Added: Cbf1 competitor, 0.05 µM
Direction: higher = stronger binding
All sequences stand within: … GTCTTGATTCGCTTGACGCTGCTG
Target sequence (chain): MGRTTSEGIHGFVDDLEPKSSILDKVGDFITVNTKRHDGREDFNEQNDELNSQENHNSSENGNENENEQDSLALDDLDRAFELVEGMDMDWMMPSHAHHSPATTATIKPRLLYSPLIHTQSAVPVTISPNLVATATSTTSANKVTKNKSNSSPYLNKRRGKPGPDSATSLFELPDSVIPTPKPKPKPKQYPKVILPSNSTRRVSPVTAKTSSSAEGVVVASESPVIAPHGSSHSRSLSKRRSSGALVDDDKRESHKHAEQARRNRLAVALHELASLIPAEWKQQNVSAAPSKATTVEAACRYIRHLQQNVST
Sequence | fluorescence intensity [a.u.]
GTCTTGTCTCATTGGTGTGTGGGTGTCCCCACTTCA | 6470
CTAACGAAGGTTTGGGGGGTGGGTGACAAGCCAAGT | 5430
CGTCCTAGCGATTGACACGTGTTTTCCATGAGGAAG | 16900
CTTCTGTAAATTTGCCATGTGGGTGGACGCGCCCCG | 10800
GATAACCTCCTTAGCACCGTGATTGTTTAATGTGTC | 6290
CTAACGAAGGTTTGTAAAGTGGGTGACAAGCCAAGT | 3560
CGTCCTAGCGATTGAAAGGTGGGTGCCATGAGGAAG | 6190
CTAACGAAGGTTTGTCACGATACTTACAAGCCAAGT | 5530
CATACCCAACCTTTTCACGTGGTGTAAGATATTTGT | 16300
CTTCTGTAAATTTGTATCGTGGGTGGACGCGCCCCG | 7320
AAAGCGGTAATTTGAGAGGTGGGTGCAGATATCTAT | 4220
GGTACAGCGCCCTGTCATGTTCCCCGATTGCCTGTT | 4980
CTTCTGTAAATTTTTCACGTGCTTTGACGCGCCCCG | 14500
TAAGGGCCAGGATGACAGGTGATGCTGCTTGCATTT | 4550
CTTGCCAGGTACCATCACGCACGGCATGTTTTCTTC | 8540
CTGTCCAGCGCAGACCACGTGGCCCTTCCTGGTGCT | 18800
TTGAACAACCATCCCAACGTGAAGAAGCCAAGAAGG | 7180
TGCGCAACAACTTGTCACGACACTTTATGTCTAGAA | 4140
CGTCCTAGTGATTGTCACGAAACTTCCATGAGGAAG | 4820
ACCGTTGGTAGAAGCATCGTGGGTAGAAATGGTGGA | 12600
CTTCTGTAAATTTGTCACGACACTTGACGCGCCCCG | 4730
GGATTTATAGTACCGTGCGTGCAAACTTAGACTGAA | 8670

Sample 2
Target: Histone acetyltransferase KAT6A, winged helix 1, GST fusion (KAT6A, Homo sapiens, UniProt Q92794, residues 1-85)
Method: protein binding microarray
Form: double-stranded DNA, one strand shown
Sample: in vitro
Tested at: not given
Setting: 8-mer, flanks averaged, mean of 2 arrays, mostly near background
Reference: not given
Direction: higher = stronger binding
Target sequence (chain): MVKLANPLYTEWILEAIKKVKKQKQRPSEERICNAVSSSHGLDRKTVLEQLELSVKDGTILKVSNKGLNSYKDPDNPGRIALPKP
Sequence | E-score
CGGCTCAA | 0.156
ATCCTCAA | -0.115
ACCCTGTA | -0.13
ATAGCGCA | 0.197
CCGATCAG | 0.149
AGAACGCG | 0.332
AACGGGGG | 0.197
AACGCGCT | 0.382
GCCATACA | 0.0182
ACCAAAGT | -0.193
GGGTGGCA | -0.101
TAATAAGA | -0.0553
CAAACTGC | 0.00485
CTCTAGCA | -0.352
GCATGACC | -0.0504
CATGTGGC | -0.00133
AATAAGGC | -0.151
ACGTTCAT | -0.134
CGATGGCA | -0.0254
CGATCTGC | 0.0334
ACTCAGAT | -0.169
ATCGGTGA | -0.0322
CCCCCGCC | 0.28
ACGCGATC | 0.137
AAGCAATC | -0.107

Sample 3
Target: Ras GTPase-activating protein-binding protein 1, C-terminal RGG region (G3BP1, Homo sapiens, UniProt Q13283)
Chain of UniProt Q13283 (whole entry, looked up): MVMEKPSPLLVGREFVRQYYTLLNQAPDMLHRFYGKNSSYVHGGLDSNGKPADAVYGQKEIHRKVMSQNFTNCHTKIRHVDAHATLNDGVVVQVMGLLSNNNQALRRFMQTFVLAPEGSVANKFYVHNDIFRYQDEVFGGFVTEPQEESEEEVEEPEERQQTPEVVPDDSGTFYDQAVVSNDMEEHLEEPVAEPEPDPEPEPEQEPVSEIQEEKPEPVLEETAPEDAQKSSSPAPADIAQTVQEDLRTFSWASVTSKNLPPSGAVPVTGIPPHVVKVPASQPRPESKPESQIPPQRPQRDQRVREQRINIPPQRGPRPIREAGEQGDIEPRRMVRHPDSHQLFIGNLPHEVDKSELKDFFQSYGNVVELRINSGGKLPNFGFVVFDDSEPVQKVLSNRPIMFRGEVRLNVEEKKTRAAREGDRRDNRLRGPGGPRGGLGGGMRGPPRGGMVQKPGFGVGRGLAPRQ
Method: RNA Bind-n-Seq
Form: RNA
Sample: in vitro
Tested at: 1 µM
Setting: whole 134-nt RNA, ends assumed
Added: 150 mM KCl
Reference: input library
Direction: higher = stronger binding
All sequences stand within: GGGAGUUCUACAGUCCGACGAUC … UGGAAUUCUCGGGUGUCAAGG
Sequence | log2 enrichment
CACAGACAACACGCACCCACACAGACACAGAGGGAAGGGGUUGGGAUGGGGACAGGGUGCACAGCAGGGCGGGGUUGGACCCCAGCCCCU | -1.3
UUUUGCAUUUAGGGUUUUAACCAAGAAGAUCUGGAAGAAGAAAAAGGUGAAACACAGGUAAAAGAAGCAGAAGAUUCAGAUUCUGAUGAU | -2.7
CACAGACAACACGCACCCACACAGACACAGAGGGAAGGGGUUGGGAUGGGGACAGGGAGCACAGCAGGGCGGGGUAGGACCCCAGCCCCU | -0.746
UCAAGUCCUGUGCUACACAUCGUAUGUACCGAAUCGGGAAAGGAAAGGGAAAGGGAAAGUAUUAUGUUACGCCGUUCGGAUCUGCACUUC | -1.52
AAGUCCUGUGCUACACAUCGUAUGUACCGAAUCGGGUUUUUGGGUUUUUGGGAGGGAAAGUAUUAUGUUACGCCGUUCGGAUCUGCACUU | 0.243
CCUCAAGUCCUGUGCUACACAUCGUAUGUACCGAAUCGGGGCGGGGCGGGCGGAAAGUAUUAUGUUACGCCGUUCGGAUCUGCACUUCCA | 0.343
ACCAUGCAGGUGGGCAUCUUUGGGAAGUGGGGCAAGGGGGGGAUAGGGAGGGGGGUAACACUUAGGGAACAGGUGGUCCCAGGUCGUUUC | 2.35
CACAGACAACACGCACCCACACAGACACAGAGGGAAGGGGUUGGGAUGGGGACAGGGUGCACAGCAGGGCGGGGUAGGACCCCAGCUCCU | -0.889
UUGACGAGGCCGGCCCGGGAGAUGAGACCACCGGCCAGGAAGUCAUUGUCAUUCAGGACACGGGCUUUUCUGUGAAGAUCCUCGCCCCUG | -2.08
CACAGACAACACGCACCCACACAGACACAGAGGGAAGGGGUUGGGAUGGGGACAGGGUGCACAGCGGGGCGGGGUAGGACCCCAGCCCCU | -0.215
GUCCUGUGCUACACAUCGUAUGUACCGAAUCGGGGUUUGGGGUUUGGGGAAAAAGGGGAAAGUAUUAUGUUACGCCGUUCGGAUCUGCAC | 2.86
CUCAAGUCCUGUGCUACACAUCGUAUGUACCGAAUCGGUGGUUUUUGGAAAGGAAAGUAUUAUGUUACGCCGUUCGGAUCUGCACUUCCA | -0.967
UGGGAGGUGGAUUUUGUUUAUUUUUUUAGCUCAUUUCCAGGGGUGGGAAUUUUUUCUUAAUAUGUGUCAUGAAUAAAGUUGUUUUUGAAA | 3.76
UAAUUGAAGAACCCAUUUUGCUCAUUUUAGGCAUCGUUAAAGAAUCUGGAGUGAAGCACAAGGGAUUGAUUGAAAUACCCAAUCUUUCUG | -0.0451

Sample 4
Target: RING finger protein unkempt homolog, zinc fingers 1-6, SBP tag (UNK, Homo sapiens, UniProt Q9C0B0, residues 30-357)
Chain of UniProt Q9C0B0 (30-357, looked up): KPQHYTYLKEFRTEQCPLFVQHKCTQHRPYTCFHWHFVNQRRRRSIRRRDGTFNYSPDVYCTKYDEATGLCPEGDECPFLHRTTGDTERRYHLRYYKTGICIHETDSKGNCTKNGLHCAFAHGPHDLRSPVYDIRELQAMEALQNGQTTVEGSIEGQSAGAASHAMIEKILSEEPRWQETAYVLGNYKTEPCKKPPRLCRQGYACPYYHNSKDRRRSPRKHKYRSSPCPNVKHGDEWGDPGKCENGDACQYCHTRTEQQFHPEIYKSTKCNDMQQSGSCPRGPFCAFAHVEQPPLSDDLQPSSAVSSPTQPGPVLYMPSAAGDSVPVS
Method: RNA Bind-n-Seq
Form: RNA
Sample: in vitro
Tested at: 100 nM
Setting: RNA with constant flanks, ends assumed
Reference: input RNA pool
Direction: higher = stronger binding
Sequence | bound/input enrichment
GGGAGUUCUACAGUCCGACGAUCCAUUGUACCCUGCUGUAUAAUAAACAAUCUCCGACAUUUAUCAACUGUUGAUACAAAUGUCCGUCCCUAACCACUUUUUAUAUAUGUUUUAAAUUUUUGAAAUUCAAGUGUACCUGCCAUCAACAGAGGAUUGAGCAUCA | 0.795 ratio
GGGAGUUCUACAGUCCGACGAUCGCUGUGCCGAGCCGGGCCCUGUUCUCCUCCGGAUGUUGCUUCUUGAUUUUUUUUUUUUUUCCGGGGUGGGUCAGGGUUGUGACACACCAGCCCAGGUGAGAGCUGCUGCGGGUCACCUCACAACAGAGGAUUGAGCAUCA | 0.443 ratio
GGGAGUUCUACAGUCCGACGAUCCGUGCUUAUGCUCUUCUAUGAGAGAGAUGAAUUGGGGAGAAUUGUCUCCAUUUUACCGAUCCGUUUCUUUCUAAAUUAUGACCAAAAAUAUUUUGCUAUUUCUUUCUUUGUAUAUGGACACAACAGAGGAUUGAGCAUCA | 0.539 ratio

Sample 5
Target: Sal-like protein 4, full length isoform B (SALL4, Homo sapiens, UniProt Q9UJQ4-2, residues 1-616)
Method: universal PBM
Form: double-stranded DNA, one strand shown
Sample: in vitro
Tested at: not given
Setting: 8-mer, flanks averaged, mean of replicates
Direction: higher = stronger binding
Sequence | E-score
AACCAACG | -0.054
GGACGAAA | -0.136
AGGCCTCA | -0.205
AACTTCTT | 0.0231
CCCCGGGG | -0.459
CTAGTATC | -0.0174
GCATGGCA | 0.00139
GCCTCACC | -0.258
AGTGTGAG | -0.0179
AGTTCAAC | 0.0141
GCCTCTCA | -0.17
ACTCGACT | -0.0539
CCACTGGC | -0.287
AAGTAACA | 0.139
GTGTCACA | 0.0358
GTCTGATA | 0.128

Sample 6
Target: Prothrombin, mature alpha-thrombin (F2, Homo sapiens, UniProt P00734)
Method: aptamer microarray, sandwich
Form: DNA with 2'F-ANA
Sample: in vitro
Tested at: 200 nM
Setting: whole 15-mer aptamer, many near background
Added: Cy3 exosite-II aptamer, 400 nM
Direction: higher = stronger binding
Sequence: GGTTGGTGTGGTTGG
Modification | mean fluorescence intensity [a.u.]
2'F-ANA at 1 6 7 10 11 12 14 | 49.9
2'F-ANA at 2 6 7 9 14 15 | 102
2'F-ANA at 4 7 8 9 11 12 14 15 | 122
2'F-ANA at 1 3 4 5 6 7 8 9 11 12 13 15 | 74.1
2'F-ANA at 2 3 8 10 12 14 15 | 271
2'F-ANA at 1 2 4 5 6 7 8 10 13 14 | 64.5
2'F-ANA at 1 2 5 6 7 8 10 12 13 14 15 | 75.9
2'F-ANA at 2 5 8 9 10 11 | 55
2'F-ANA at 1 2 7 8 10 11 13 | 51.7
2'F-ANA at 1 2 3 4 6 7 8 10 11 14 | 52.3
2'F-ANA at 1 3 4 7 8 12 13 | 378
2'F-ANA at 2 5 7 8 10 11 12 15 | 49.2
2'F-ANA at 5 6 7 8 10 12 13 14 15 | 55.3
2'F-ANA at 1 2 3 6 8 11 12 | 358
2'F-ANA at 1 6 8 9 11 | 143
2'F-ANA at 1 2 5 6 7 8 11 14 | 54
2'F-ANA at 1 3 5 7 8 11 15 | 61.5
2'F-ANA at 2 3 4 6 9 15 | 461
2'F-ANA at 1 2 3 4 5 8 9 12 15 | 129
2'F-ANA at 1 3 7 9 11 14 | 84.5
2'F-ANA at 4 5 6 9 11 13 15 | 52.3
2'F-ANA at 1 2 8 9 11 12 | 310

For quick reference, copied from above (sample 5):
Sequence | E-score
GGACGAAA | -0.136
AGGCCTCA | -0.205
AACTTCTT | 0.0231
CCCCGGGG | -0.459
CTAGTATC | -0.0174
GCATGGCA | 0.00139
GCCTCACC | -0.258
AGTGTGAG | -0.0179
AGTTCAAC | 0.0141
GCCTCTCA | -0.17
ACTCGACT | -0.0539
CCACTGGC | -0.287
AAGTAACA | 0.139
GTGTCACA | 0.0358
